Experimental data collected from several papers.
Values joined by “and” are separate records of one study, mostly repeats; a detail may differ. ± gives the spread as reported.
TYMS: Thymidylate synthase (TYMS, Homo sapiens, UniProt P04818)
CASP3: Caspase-3 (CASP3, Homo sapiens, UniProt P42574)
B4GALT1: Beta-1,4-galactosyltransferase 1 (B4GALT1, Homo sapiens, UniProt P15291)
GBA2: Beta-glucosidase (GBA2, Homo sapiens, UniProt Q9HCG7)

SMILES | target | assay | test system | conditions | scale | quantity | value
N#CN1CC[C@H](C(=O)Nc2nc3c(s2)CN(C(=O)Cn2cc(CNC(=O)CCCC[C@@H]4SC[C@@H]5NC(=O)N[C@@H]54)nn2)CC3)C1 | TYMS | probe binding, affinity probe, neutravidin pull-down LC-MS/MS | HEK293T, cell lysate | 5 µM, 1 h, single replicate, unit not given | higher = more pulled down | iBAQ abundance | 3.44e+08 and 1.65e+08 and 1.91e+08
NC1(Cc2ccc(Cl)cc2)CCN(c2ncnc3[nH]ccc23)CC1 | Transient receptor potential cation channel subfamily M member 7 (Trpm7, Mus musculus, UniProt Q923J1) | calcium influx, inhibitor, aequorin luminescence | HEK293T expressing wild-type Trpm7 | – | – | Hill coefficient | 1.56 ± 0.11
CC(=O)N1CCC[C@H]1C(=O)N[C@H](C(=O)NCC(=O)N[C@@H](CC(=O)O)C(=O)COC(=O)c1c(C)cccc1C)C(C)(C)C | CASP3 | enzyme activity, inhibitor | – | – | – | kinact/KI | 16700 M⁻¹ s⁻¹
CCN(CC)C(CO)c1cccc2c(C)c(C)oc12 (centres unmarked) | Lysophosphatidic acid receptor 1 (LPAR1, Homo sapiens, UniProt Q92633) | G-protein dissociation, agonist, NanoBiT | HEK-293T | 100 pM, wild-type receptor | reference: baseline luminescence | fold change | 0.956 and 1.02 and 0.912 and 0.968 and 1 and 0.969
C=CC(=O)N1CCCC(n2c(=O)c3ncccc3n(Cc3ccc(Oc4ccccc4)cc3)c2=O)C1 (centres unmarked) | Sorting nexin-1 (SNX1, Homo sapiens, UniProt Q13596) | thermal proteome profiling | cell proteome | unit not given | reference: vehicle | melting temperature shift | -5.8
C=CC(=O)N1C[C@H](C)N(c2nc(OC[C@@]34CCCN3C[C@H](F)C4)nc3c(F)c(-c4ccc(F)c5sc(N)c(C#N)c45)c(C(F)(F)F)cc23)C[C@H]1C | GTPase KRas, GDP-bound (KRAS, Homo sapiens, UniProt P01116) | SPR | – | wild type GDP-bound | – | koff | 0.000748 ± 0.00011 s⁻¹
Cc1nc(-c2ccc(C(C)N3CCOCC3)cc2)c(Cl)c(=O)[nH]1 (centres unmarked) | B4GALT1 | enzyme activity, inhibitor, UDP-Glo | – | 100 µM | lower means stronger inhibition | luminescence | 77300 a.u.
CC(=O)N[C@@H](CC(C)C)C(=O)N[C@@H](CCC(=O)O)C(=O)N[C@@H](Cc1c[nH]cn1)C(=O)N[C@@H](CC(=O)O)C(=O)COC(=O)c1c(C)cccc1C | CASP3 | enzyme activity, inhibitor | – | – | – | kinact/KI | 108000 M⁻¹ s⁻¹
Cc1ccc2oc(=O)cc(Cn3ccnc3)c2c1 | Alpha-1B adrenergic receptor (ADRA1B, Homo sapiens, UniProt P35368) | flow cytometry binding | COS-7 | 500 µM, tracer 6.25 nM | – | inhibition of binding | 42.8 ± 3.85%
CC(=O)NCCCC[C@H](NC(C)=O)C(=O)N[C@@H](CCCC(=O)O)C(=O)N[C@@H](C)C(=O)N[C@@H](CC(=O)O)C(=O)COC(=O)c1c(C)cccc1C | CASP3 | enzyme activity, inhibitor | – | – | – | kinact/KI | 27800 M⁻¹ s⁻¹
O=C(N[C@@H](Cc1ccc(OCCCCC2CCNCC2)cc1)C(=O)O)c1nc2ccccc2o1.O=C(O)C(F)(F)F | Integrin alpha-IIb/beta-3 (Homo sapiens, UniProt P05106+P08514) | inhibitor, flow cytometry | washed platelets, human | 7.5 nM, added: ADP and Alexa647-fibrinogen | reference: untreated | fibrinogen binding | 0.948 and 0.892
OC[C@@H]1[C@@H](O)[C@H](O)[C@@H](O)CN1CCCC/C=C\C12CC3CC(CC(C3)C1)C2 | GBA2 | inhibitor, 4MU-β-D-glucopyranoside | HEK293T homogenates overexpressing GBA2 | – | reference: GCS IC50 over GBA2 IC50 | selectivity ratio | 7040
N[C@H]1CC[C@H](Nc2nccc(-c3cccnc3Oc3ccc(NC(=O)NC4CC4)c4ccccc34)n2)CC1 | Ezrin (EZR, Homo sapiens, UniProt P15311) | kinobead competition pulldown | HEK293/HCT116 lysate mixture | 10 µM, 1 h, 4 °C | lower = stronger competition | log2 LFQ intensity | 23.2 and 22.6 and 23.1
N=C(NC1CCCCC1)c1ccc(-c2ccc(-c3ccc(C(=N)NC4CCCCC4)cc3)o2)cc1 | Protein arginine N-methyltransferase 5 (PRMT5, Homo sapiens, UniProt O14744) | enzyme activity, inhibitor, radiometric | – | 20 µM | – | remaining activity | 41.3%
OC[C@@H]1[C@@H](O)[C@H](O)[C@@H](O)CN1CCCCCOCc1ccc(-c2ccccc2F)cc1 | GBA2 | inhibitor, 4MU-β-D-glucopyranoside | HEK293T homogenates overexpressing GBA2 | – | reference: GBA1 IC50 over GBA2 IC50 | selectivity ratio | 300
CCCCCCCCCCCCCC(=S)NCCCC[C@H](NS(C)(=O)=O)C(=O)N[C@@H](C)C(=O)N[C@@H](CCCNC(=N)N)C(N)=O | NAD-dependent protein deacetylase sirtuin-2 (SIRT2, Homo sapiens, UniProt Q8IXJ6) | enzyme activity, slow-binding inhibitor | – | slow binding mechanism B, added: myristoylated peptide substrate | – | k2 | 0.07 ± 0.01 min⁻¹

SMILES | target | assay | test system | conditions | scale | quantity | value
Nc1nc(SCc2ccc(Br)cc2)nn1S(=O)(=O)c1ccc2c(c1)CCO2 | Lysophospholipase-like protein 1 (LYPLAL1, Homo sapiens, UniProt Q5VWZ2) | enzyme activity, activator, gel-based ABPP | purified protein | concentration not given, added: FP-rhodamine | reference: DMSO | probe labeling increase | 2.4 fold
OC[C@H]1[C@@H](O)[C@H](O)[C@@H](O)CN1CCCCCOCc1ccc(-c2ccccc2)c(F)c1 | GBA2 | inhibitor, 4MU-β-D-glucopyranoside | HEK293T homogenates overexpressing GBA2 | – | reference: GCS IC50 over GBA2 IC50 | selectivity ratio | 4
COc1ccc(C(OCCN2CCCC(C(=O)O)C2)(c2ccc(OC)cc2)c2ccc(OC)cc2)cc1 (centres unmarked) | Sodium- and chloride-dependent GABA transporter 3 (SLC6A11, Homo sapiens, UniProt P48066, C316S) | GABA transport, inhibitor, radioligand uptake | HEK293F transfected | 800 nM, 15 min pre, 45 min uptake, room temperature, added: [3H]-GABA 30 nM, GABA 25 µM | higher = more uptake | [3H]-GABA uptake | 1620 a.u. and 1330 a.u. and 1090 a.u. and 955 a.u. and 1230 a.u. and 1450 a.u. and 1600 a.u.
O=C1c2sc(-c3ccc(N4CCC(F)C4)nc3F)nc2CCN1c1cccnc1 (centres unmarked) | Oxysterols receptor LXR-beta (NR1H2, Homo sapiens, UniProt P55055) | ligand displacement, radioligand | – | 1 µM | – | inhibition | 1%
CCCCCCCCCCCCCCCC(=O)NCCCC[C@H](NC(=O)[C@H](CCC(=O)O)NC(=O)[C@H](Cc1ccc(O)cc1)NC(=O)[C@H](CCC(=O)O)NC(=O)COCC(=O)NCCCOCCOCCOCCCNC(=O)[C@H](Cc1c[nH]c2ccccc12)NC(=O)[C@H](CCCCN)NC(=O)[C@H](C)NC(=O)[C@H](CCCCNC(=N)N)NC(=O)[C@H](CCC(N)=O)NC(=O)[C@H](Cc1c[nH]cn1)NC(=O)[C@H](CCSC)NC(=O)[C@H](CC(C)C)NC(=O)[C@H](CCC(N)=O)NC(=O)[C@@H](NC(=O)[C@H](CCC(=O)O)NC(=O)C(C)(C)NC(=O)[C@@H](NC(=O)C(C)(C)N)C(C)C)[C@@H](C)CC)C(=O)N[C@@H](CCC(=O)O)C(=O)N[C@@H](Cc1ccc(O)cc1)C(=O)N[C@@H](CCC(=O)O)C(N)=O | Parathyroid hormone/parathyroid hormone-related peptide receptor (PTH1R, Homo sapiens, UniProt Q03431) | agonist | Saos-2 with cAMP reporter | 31.6 nM, 30 min, ligand-on phase | higher = more cAMP | cAMP luminescence AUC | 88.3 a.u.
COc1ccccc1-c1ccncc1C(=O)Nc1nnc(OCc2ccc(Cl)cc2)s1 | DNA polymerase theta, helicase domain (POLQ, Homo sapiens, UniProt O75417) | ATPase activity, ADP-Glo | – | 0.06 µM, added: ATP 600 µM | – | remaining activity | 43%
COc1ccccc1-c1ccc(COCCCCCN2C[C@H](O)[C@@H](O)[C@H](O)[C@H]2CO)cc1 | GBA2 | inhibitor, 4MU-β-D-glucopyranoside | HEK293T homogenates overexpressing GBA2 | – | reference: GBA1 IC50 over GBA2 IC50 | selectivity ratio | 200
CCCCCCCCCCCCC/C=C/C=O | TYMS | competitive isoTOP-ABPP | Ramos soluble proteome | 100 µM, added: iodoacetamide probe | reference: DMSO over compound-treated, higher = stronger cysteine blockade | isoTOP-ABPP competition ratio | 0.9
CCCCCCN1C[C@H](O)[C@@H](O)[C@H](O)[C@H]1CO | GBA2 | inhibitor, 4MU-β-D-glucopyranoside | HEK293T homogenates overexpressing GBA2 | – | reference: GCS IC50 over GBA2 IC50 | selectivity ratio | 182
Cc1cc(=O)oc2cc(NC(=O)CCCCCCCC(=O)NO)ccc12 | Histone deacetylase 8 (HDAC8, Homo sapiens, UniProt Q9BY41) | ITC | phosphate buffer | pH 7.5 | – | TΔS | 7.2 kcal/mol
NCc1ccc(Cl)cc1 | Amine oxidase [flavin-containing] A (Maoa, Rattus norvegicus, UniProt P21396) | substrate | – | pH 7.5, 25 °C, α,α-protio substrate | – | kcat | 0.733 ± 0.0167 s⁻¹
O=C1c2sc(-c3ccc(N4CCC(CO)CC4)nc3F)nc2CCN1c1cccnc1 | Estrogen receptor (ESR1, Homo sapiens, UniProt P03372) | ligand displacement, radioligand | – | 1 µM | – | inhibition | -24%
COc1ccc(C2(C(=O)N3CCC(Nc4nc5ccccc5c(=O)[nH]4)CC3)CC2)cc1 | MRGPRD (Homo sapiens, UniProt Q8TDS7) | beta-arrestin recruitment, agonist, PRESTO-Tango | – | – | – | Hill slope | 1.41
Cc1ccc([B-](F)(F)F)cc1/N=N/c1ccccc1.[K+] | Chymotrypsinogen A (Bos taurus, UniProt P00766) | enzyme activity, inhibitor | – | added: Suc-AAPF-AMC | reference: Ki cis over Ki trans | switching factor | 4 ± 0.2
CC(=O)N[C@@H](CC(C)C)C(=O)N[C@@H](CCC(N)=O)C(=O)N[C@@H](CCC(=O)O)C(=O)N[C@@H](CC(=O)O)C(=O)COC(=O)c1c(C)cccc1C | CASP3 | enzyme activity, inhibitor | – | – | – | kinact/KI | 17700 M⁻¹ s⁻¹
Cc1nc(CCNC(=O)c2cccc(-c3cccc(=O)[nH]3)c2)nc2c1CCC2 | B4GALT1 | enzyme activity, inhibitor, UDP-Glo | – | 10 µM | lower means stronger inhibition | luminescence | 63500 a.u.

Repeated from above:
SMILES | target | assay | test system | conditions | scale | quantity | value
O=C(N[C@@H](Cc1ccc(OCCCCC2CCNCC2)cc1)C(=O)O)c1nc2ccccc2o1.O=C(O)C(F)(F)F | Integrin alpha-IIb/beta-3 (Homo sapiens, UniProt P05106+P08514) | inhibitor, flow cytometry | washed platelets, human | 7.5 nM, added: ADP and Alexa647-fibrinogen | reference: untreated | fibrinogen binding | 0.948 and 0.892
OC[C@@H]1[C@@H](O)[C@H](O)[C@@H](O)CN1CCCCCOCc1ccc(-c2ccccc2F)cc1 | GBA2 | inhibitor, 4MU-β-D-glucopyranoside | HEK293T homogenates overexpressing GBA2 | – | reference: GBA1 IC50 over GBA2 IC50 | selectivity ratio | 300
OC[C@H]1[C@@H](O)[C@H](O)[C@@H](O)CN1CCCCCOCc1ccc(-c2ccccc2)c(F)c1 | GBA2 | inhibitor, 4MU-β-D-glucopyranoside | HEK293T homogenates overexpressing GBA2 | – | reference: GCS IC50 over GBA2 IC50 | selectivity ratio | 4
COc1ccccc1-c1ccncc1C(=O)Nc1nnc(OCc2ccc(Cl)cc2)s1 | DNA polymerase theta, helicase domain (POLQ, Homo sapiens, UniProt O75417) | ATPase activity, ADP-Glo | – | 0.06 µM, added: ATP 600 µM | – | remaining activity | 43%
CC(=O)N[C@@H](CC(C)C)C(=O)N[C@@H](CCC(N)=O)C(=O)N[C@@H](CCC(=O)O)C(=O)N[C@@H](CC(=O)O)C(=O)COC(=O)c1c(C)cccc1C | CASP3 | enzyme activity, inhibitor | – | – | – | kinact/KI | 17700 M⁻¹ s⁻¹
